Published values of several laboratories.
Protocols differ between the studies behind these lines.
Cell line: MCF7

`CC(N)C(O)CCCCCCCCCCCCCCC(=O)CCCCCCCC(O)C(C)N` (centres unmarked) has an IC50 of 34.9 µM (cell growth or viability, resazurin; 96 h).
`CC(C)C[C@H](NC(=O)[C@H](CC(C)C)NC(=O)[C@H](CC(=O)O)NC(=O)[C@H](CCCCN)NC(=O)[C@H](Cc1ccccc1)NC(=O)CN)C(=O)N[C@@H](CCCCN)C(=O)N[C@H]1CSCc2ccccc2CSC[C@@H](C(=O)N[C@@H](CC(C)C)C(=O)N[C@H](C(=O)N[C@@H](CCCCN)C(=O)N[C@H](C(=O)N[C@H](C(=O)N[C@@H](CC(C)C)C(=O)N[C@@H](Cc2ccccc2)C(N)=O)C(C)C)[C@@H](C)O)C(C)C)NC(=O)[C@H](CCCCN)NC(=O)[C@H](C)NC(=O)[C@H](C)NC1=O` gave an IC50 of 3.79 µM (cell growth or viability, CCK-8).
`Cc1cc(C)c(S(=O)(=O)N2CC2C(N)=O)c(C)c1` (centres unmarked) has an IC50 of 189 µM (cell growth or viability, MTT; 48 h).
`[Cl][Ag].[Se]=c1n(C2CCCCC2)ccn1C1CCCCC1` has an IC50 of 1.3 µM (cell growth or viability, MTT; 72 h).
`CC(=O)O[C@H]1C[C@H](O[C@H]2[C@@H](O)C[C@H](O[C@H]3[C@@H](O)C[C@H](O[C@H]4CC[C@@]5(C)[C@H](CC[C@@H]6[C@@H]5CC[C@]5(C)[C@@H](C7=CC(=O)OC7)[C@@H](O)C[C@]65O)C4)O[C@@H]3C)O[C@@H]2C)O[C@H](C)[C@H]1O[C@@H]1O[C@H](CO)[C@@H](O)[C@H](O)[C@H]1O` has an IC50 of 0.44 µM (cell growth or viability, MTT; 48 h).
The IC50 of `Cc1nn(-c2ccccc2)c(O)c1C(c1ccc(F)cc1)c1c(C)nn(-c2ccccc2)c1O` is reported as 28.5 µM (cell growth or viability, MTT; 48 h).
`C=CC[P](c1ccccc1)(c1ccccc1)[Pt]([S]c1nc2ccccc2[nH]1)([S]c1nc2ccccc2[nH]1)[P](CC=C)(c1ccccc1)c1ccccc1` gave an IC50 of 17.4 µM (cell growth or viability, MTT).
The IC50 of `CC(C)[C@H](NC(=O)[C@H](C(C)C)N(C)C)C(=O)N(C)[C@H](C(=O)N1CCC[C@H]1C(=O)N1CCC[C@H]1C(=O)O)C(C)C` is reported as 0.96 µM (cell growth or viability; 48 h).
With `C=CC12COC(=O)C(=C)C1C(O)C1C(=C)C(=O)OC1C2` (centres unmarked) the IC50 was 35 µM (cell growth or viability, MTT; 72 h).
With `Cc1nn(-c2ccccc2)c(O)c1C(c1cccc([N+](=O)[O-])c1)c1c(C)nn(-c2ccccc2)c1O` the IC50 was 32.5 µM (cell growth or viability, MTT; 48 h).
The IC50 of `COc1cc(/C=C(\C#N)C(=O)Nc2nnc(C(F)(F)F)s2)ccc1OC(=O)N1CCN(C(=O)CCCC(=O)NCCCC[C@@H]2NC(=O)[C@@H](Cc3ccc(O)cc3)NC(=O)[C@H](CC(=O)O)NC(=O)CNC(=O)[C@H](CCCNC(=N)N)NC2=O)CC1` is reported as over 100 µM (cytotoxicity, MTT; 48 h).

For quick reference, copied from above:
`C=CC[P](c1ccccc1)(c1ccccc1)[Pt]([S]c1nc2ccccc2[nH]1)([S]c1nc2ccccc2[nH]1)[P](CC=C)(c1ccccc1)c1ccccc1` gave an IC50 of 17.4 µM (cell growth or viability, MTT).
